Earlier results that unrelated publications cite.
Protocols differ between the studies behind these lines. ± gives the spread as reported. ≈ marks a conversion by molar mass, not a printed value.
Chain of UniProt P00189 (whole entry, looked up): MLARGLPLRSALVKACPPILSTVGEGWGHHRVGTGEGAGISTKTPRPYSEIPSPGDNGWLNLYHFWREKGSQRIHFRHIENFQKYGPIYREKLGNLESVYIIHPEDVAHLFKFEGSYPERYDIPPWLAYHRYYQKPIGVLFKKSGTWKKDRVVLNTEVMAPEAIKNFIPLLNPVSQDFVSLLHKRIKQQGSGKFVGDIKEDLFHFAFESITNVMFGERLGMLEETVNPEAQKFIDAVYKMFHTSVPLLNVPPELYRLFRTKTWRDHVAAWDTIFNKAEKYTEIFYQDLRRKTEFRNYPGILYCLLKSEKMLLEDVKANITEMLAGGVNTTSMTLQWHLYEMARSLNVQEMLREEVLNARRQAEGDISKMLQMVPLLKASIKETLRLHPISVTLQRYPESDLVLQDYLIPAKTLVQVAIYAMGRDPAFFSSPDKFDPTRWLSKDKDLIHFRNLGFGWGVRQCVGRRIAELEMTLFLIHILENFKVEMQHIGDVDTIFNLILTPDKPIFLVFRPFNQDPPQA
Chain of UniProt O00329 (whole entry, looked up): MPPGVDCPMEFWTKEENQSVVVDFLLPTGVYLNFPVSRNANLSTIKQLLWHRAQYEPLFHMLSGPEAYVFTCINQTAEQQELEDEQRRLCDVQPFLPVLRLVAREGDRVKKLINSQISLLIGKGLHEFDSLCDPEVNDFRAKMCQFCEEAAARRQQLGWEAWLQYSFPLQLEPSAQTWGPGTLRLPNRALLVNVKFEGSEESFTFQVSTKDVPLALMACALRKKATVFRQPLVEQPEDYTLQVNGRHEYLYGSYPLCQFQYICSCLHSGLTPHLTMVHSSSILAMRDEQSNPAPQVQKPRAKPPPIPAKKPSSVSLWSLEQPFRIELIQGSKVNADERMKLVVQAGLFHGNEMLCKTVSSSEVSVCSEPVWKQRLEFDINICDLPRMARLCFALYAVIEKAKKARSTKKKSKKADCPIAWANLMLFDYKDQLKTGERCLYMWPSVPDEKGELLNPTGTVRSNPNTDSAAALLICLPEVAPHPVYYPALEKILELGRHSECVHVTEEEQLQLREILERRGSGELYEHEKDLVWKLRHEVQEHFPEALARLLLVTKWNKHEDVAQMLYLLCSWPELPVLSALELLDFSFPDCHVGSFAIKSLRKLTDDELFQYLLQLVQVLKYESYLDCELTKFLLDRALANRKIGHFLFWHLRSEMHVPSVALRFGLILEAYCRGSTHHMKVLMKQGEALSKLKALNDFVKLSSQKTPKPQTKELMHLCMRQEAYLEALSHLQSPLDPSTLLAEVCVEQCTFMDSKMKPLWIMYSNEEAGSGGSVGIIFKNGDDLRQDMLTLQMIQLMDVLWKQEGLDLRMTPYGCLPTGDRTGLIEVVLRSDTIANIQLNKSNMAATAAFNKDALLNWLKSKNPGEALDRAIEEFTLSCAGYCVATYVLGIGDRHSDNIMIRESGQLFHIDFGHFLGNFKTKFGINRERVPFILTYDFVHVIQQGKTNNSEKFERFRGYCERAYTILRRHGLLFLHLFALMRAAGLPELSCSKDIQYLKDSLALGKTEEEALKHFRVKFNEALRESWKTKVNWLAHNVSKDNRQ
Chain of UniProt P07333 (whole entry, looked up): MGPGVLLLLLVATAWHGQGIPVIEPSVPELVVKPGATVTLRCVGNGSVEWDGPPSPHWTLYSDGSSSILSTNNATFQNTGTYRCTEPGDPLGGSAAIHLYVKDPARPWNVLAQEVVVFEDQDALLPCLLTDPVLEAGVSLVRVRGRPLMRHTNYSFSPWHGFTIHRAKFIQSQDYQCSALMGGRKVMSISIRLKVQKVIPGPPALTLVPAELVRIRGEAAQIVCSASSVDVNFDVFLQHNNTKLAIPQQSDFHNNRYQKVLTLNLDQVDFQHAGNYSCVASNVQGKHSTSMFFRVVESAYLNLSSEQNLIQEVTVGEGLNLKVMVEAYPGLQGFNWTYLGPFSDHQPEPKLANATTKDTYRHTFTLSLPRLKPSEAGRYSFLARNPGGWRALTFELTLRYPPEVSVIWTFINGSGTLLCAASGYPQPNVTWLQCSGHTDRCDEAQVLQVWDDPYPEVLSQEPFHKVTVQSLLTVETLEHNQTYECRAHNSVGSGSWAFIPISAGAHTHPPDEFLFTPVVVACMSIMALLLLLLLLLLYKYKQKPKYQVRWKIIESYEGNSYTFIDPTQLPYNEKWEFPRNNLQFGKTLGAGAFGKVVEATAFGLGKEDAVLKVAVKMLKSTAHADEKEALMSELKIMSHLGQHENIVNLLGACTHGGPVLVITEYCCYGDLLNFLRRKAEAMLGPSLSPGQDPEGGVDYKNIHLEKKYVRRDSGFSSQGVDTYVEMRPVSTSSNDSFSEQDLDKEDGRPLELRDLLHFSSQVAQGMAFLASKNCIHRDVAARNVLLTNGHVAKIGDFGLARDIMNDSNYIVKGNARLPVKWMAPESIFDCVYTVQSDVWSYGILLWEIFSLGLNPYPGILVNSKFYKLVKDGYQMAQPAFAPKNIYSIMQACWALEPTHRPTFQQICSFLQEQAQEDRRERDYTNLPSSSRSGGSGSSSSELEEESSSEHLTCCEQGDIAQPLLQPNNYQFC
Chain of UniProt O14744 (whole entry, looked up): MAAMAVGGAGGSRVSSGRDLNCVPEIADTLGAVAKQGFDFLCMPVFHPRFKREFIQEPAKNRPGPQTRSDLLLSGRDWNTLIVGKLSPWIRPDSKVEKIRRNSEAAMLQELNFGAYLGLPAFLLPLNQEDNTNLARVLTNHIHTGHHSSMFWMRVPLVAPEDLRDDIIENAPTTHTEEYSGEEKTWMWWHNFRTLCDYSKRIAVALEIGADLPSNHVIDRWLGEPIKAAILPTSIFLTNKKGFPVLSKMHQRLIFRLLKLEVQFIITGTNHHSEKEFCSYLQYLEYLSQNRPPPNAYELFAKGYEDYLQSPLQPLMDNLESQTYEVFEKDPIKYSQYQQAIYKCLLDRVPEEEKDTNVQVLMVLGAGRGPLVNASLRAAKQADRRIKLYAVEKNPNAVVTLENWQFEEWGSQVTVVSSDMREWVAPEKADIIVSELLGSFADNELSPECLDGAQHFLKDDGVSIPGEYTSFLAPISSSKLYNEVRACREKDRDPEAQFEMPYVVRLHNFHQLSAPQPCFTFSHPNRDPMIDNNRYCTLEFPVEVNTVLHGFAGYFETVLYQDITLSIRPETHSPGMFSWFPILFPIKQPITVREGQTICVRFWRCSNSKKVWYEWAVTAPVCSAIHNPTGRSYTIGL
Chain of UniProt Q6ZN16 (whole entry, looked up): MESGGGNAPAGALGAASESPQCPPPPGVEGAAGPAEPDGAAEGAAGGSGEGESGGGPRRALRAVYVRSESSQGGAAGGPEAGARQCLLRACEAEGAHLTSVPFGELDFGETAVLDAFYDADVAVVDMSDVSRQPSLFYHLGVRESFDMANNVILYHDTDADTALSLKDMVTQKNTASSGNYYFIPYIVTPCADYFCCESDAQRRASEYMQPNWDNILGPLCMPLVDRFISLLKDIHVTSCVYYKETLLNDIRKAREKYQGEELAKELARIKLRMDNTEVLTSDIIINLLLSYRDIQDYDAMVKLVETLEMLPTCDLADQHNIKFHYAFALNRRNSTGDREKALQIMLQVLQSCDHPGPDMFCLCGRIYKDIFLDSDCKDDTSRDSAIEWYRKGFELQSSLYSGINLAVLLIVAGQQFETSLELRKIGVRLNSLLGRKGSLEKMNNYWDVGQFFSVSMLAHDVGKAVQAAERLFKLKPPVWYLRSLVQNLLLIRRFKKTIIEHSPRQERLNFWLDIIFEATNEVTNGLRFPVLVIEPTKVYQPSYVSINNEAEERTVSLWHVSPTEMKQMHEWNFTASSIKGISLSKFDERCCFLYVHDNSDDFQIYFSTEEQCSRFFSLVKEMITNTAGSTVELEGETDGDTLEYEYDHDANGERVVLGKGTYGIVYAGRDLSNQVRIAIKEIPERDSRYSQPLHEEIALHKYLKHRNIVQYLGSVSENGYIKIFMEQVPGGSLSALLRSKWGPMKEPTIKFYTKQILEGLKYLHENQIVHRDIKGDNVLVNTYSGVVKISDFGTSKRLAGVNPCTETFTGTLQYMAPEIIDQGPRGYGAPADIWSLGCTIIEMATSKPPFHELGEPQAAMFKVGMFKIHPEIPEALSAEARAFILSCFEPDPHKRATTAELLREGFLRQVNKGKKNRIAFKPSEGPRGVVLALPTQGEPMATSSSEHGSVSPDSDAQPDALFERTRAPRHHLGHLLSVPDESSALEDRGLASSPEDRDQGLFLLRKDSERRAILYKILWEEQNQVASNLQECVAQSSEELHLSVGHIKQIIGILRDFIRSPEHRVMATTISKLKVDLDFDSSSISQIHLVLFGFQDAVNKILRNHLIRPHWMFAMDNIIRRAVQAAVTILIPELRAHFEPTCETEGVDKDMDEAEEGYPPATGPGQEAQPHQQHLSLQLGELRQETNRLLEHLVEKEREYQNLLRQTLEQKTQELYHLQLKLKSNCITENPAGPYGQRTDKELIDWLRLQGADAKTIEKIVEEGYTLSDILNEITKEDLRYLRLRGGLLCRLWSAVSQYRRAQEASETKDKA
Chain of UniProt P43140 (whole entry, looked up): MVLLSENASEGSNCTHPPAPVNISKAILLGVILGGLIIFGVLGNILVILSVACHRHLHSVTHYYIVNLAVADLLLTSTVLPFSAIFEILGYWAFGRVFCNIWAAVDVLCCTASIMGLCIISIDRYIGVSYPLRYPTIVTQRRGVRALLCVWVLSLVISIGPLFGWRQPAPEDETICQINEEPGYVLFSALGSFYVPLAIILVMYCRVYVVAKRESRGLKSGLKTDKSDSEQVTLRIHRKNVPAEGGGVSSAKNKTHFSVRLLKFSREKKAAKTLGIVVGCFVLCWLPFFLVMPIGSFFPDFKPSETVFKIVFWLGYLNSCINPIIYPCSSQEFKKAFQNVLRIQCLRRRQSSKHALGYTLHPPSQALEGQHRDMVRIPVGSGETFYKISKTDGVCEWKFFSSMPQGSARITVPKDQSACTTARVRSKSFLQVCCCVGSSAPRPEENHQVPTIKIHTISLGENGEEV

With `CCN(c1cc(-c2ccc(CN3CCOCC3)cc2)cc(C(=O)NCc2c(C)cc(C)[nH]c2=O)c1C)C1CCOCC1` the inhibition was 2 ± 6% (Protein arginine N-methyltransferase 5, with WDR77 (PRMT5, Homo sapiens, UniProt O14744); enzyme activity, inhibitor; 1 µM).
With `Nc1cc(C(F)(F)F)c(-c2nc(N3CCOCC3)nc(N3CCOCC3)n2)cn1` the remaining activity was 100% (MAP3K15 (Homo sapiens, UniProt Q6ZN16); enzyme activity; 10 µM; reference: untreated).
The Hill coefficient of `COc1cc2nc(N3CCN(C(=O)c4ccco4)CC3)nc(N)c2cc1OC` is reported as 0.9 (Adra1a (Rattus norvegicus, UniProt P43140); historical reference value).
With `Nc1cc(C(F)(F)F)c(-c2nc(N3CCOCC3)nc(N3CCOCC3)n2)cn1` the remaining binding was 2.8% (Macrophage colony-stimulating factor 1 receptor, autoinhibited (CSF1R, Homo sapiens, UniProt P07333); KinomeScan competition binding; 10 µM).
For `CC(C)CCC[C@@H](C)[C@H]1CC[C@H]2C3=CC=C4C[C@@H](O)CC[C@@]4(C)[C@@H]3CC[C@]12C`, the metabolism rate was 4.8 mol/min/mol enzyme (Cholesterol side-chain cleavage enzyme, mitochondrial (Bos taurus, UniProt P00189); substrate).
`Cc1cc(NC(=O)c2cccc(NC(=O)/C=C/CN(C)C)c2)ccc1Nc1nccc(-c2cccnc2)n1` gave a remaining activity of 60% (TNK1 (Homo sapiens, UniProt Q13470); enzyme activity, inhibitor; 1 µM; reference: vehicle).
`OC[C@H]1OC(O)[C@H](O)[C@@H](O)[C@@H]1O` (some centres unmarked) has a K0.5 of 8.4 ± 0.2 mM (human hexokinase 4; substrate).
`C=CC(=O)N1CCC(C(=O)NCC(=O)N2CCN(c3nc(-c4cnc(N)nc4C(F)F)nc(N4CCOCC4)n3)CC2)CC1` gave a remaining activity of 19% (PIK3CD (Homo sapiens, UniProt O00329); kinase activity; 1 µM).
`NCCc1c[nH]c2ccc(O)cc12` has an affinity reduction of 10 fold (5-HT2A receptor Y7.43A; concentration not given; reference: wild type receptor).
The conversion of `CC1=CC(=O)CC(C)(C)C1=O` is reported as 88 to 99% (Old Yellow Enzyme 1; substrate).
`CC(C)(O/N=C(\C(=O)N[C@@H]1C(=O)N2C(C(=O)[O-])=C(C[n+]3ccccc3)CS[C@H]12)c1csc(N)n1)C(=O)O` gave an MIC of 4 µg/mL (≈ 7.32 µM) (Enterobacter cloacae; clinical isolate RKI-No_210/15).
`O=C(Nc1nc2ccccc2[nH]1)c1ccccc1` gave an activity of 1.5 µM (luciferase; PubChem AID 588342).
For `C[N+](C)(C)CC(=O)O`, “binding enthalpy (ΔH)” read -1.6 ± 0.2 kcal/mol (Methyl-accepting chemotaxis protein, ligand-binding domain (Pectobacterium atrosepticum, UniProt Q6D515); isothermal titration calorimetry; concentration not given).
With `COc1c(N2C[C@@H]3CCCN[C@@H]3C2)c(F)cc2c(=O)c(C(=O)O)cn(C3CC3)c12` the Km was 500 µM (SULT2A1; substrate).
